Published values of several laboratories.
“And” joins repeats or separate records; there may be more than shown. Numbers after ± are the reported error.
Organism: Salmonella typhimurium

CN(C)c1ccc(N=NS(=O)(=O)[O-])cc1.[Na+]  revertant colonies (Ames test; TA98; 10 µg/well, without S9): 560 colonies/well and 544 colonies/well and 656 colonies/well
Nc1c2ccccc2nc2ccccc12.Nc1c2ccccc2nc2ccccc12.O  revertant fold increase (TA1537; 50 µg/plate, added: without S9; reference: vehicle control): 23.2
COc1cccc(-c2n[nH]c(SCc3ccccn3)n2)c1OC  revertant colonies per plate (Ames test, preincubation; TA98; 0.25 mg/plate, without S9): 19
CNC(=O)c1c(N(C)N=O)ncn1C  revertant colonies per plate (plate incorporation; TA1537, water; 150 µg/plate, without S9): 12.3 ± 3
Fc1ccc(C2=CCNCC2)cc1  induction factor (genotoxicity, SOS/umu test; TA1535/pSK1002; 0.063 mg/mL, 4 h, without S9, full range): 0.9
COS(C)(=O)=O  revertants per well (mini-Ames test; TA102; 1.0 µL/well, without S9): > 600
Cc1cc(C(=O)NC(C)(C)COc2cccc3c2C(N)=NS(=O)(=O)N3)cc(C)n1  revertant ratio (Ames test, initial; TA1535; 15.0 µg/plate; reference: solvent control): 1.1
CCCCCc1cc(/C=C2\N=C(c3ccc[nH]3)C=C2Oc2ccccc2)[nH]c1C.Cl  mutagenicity (Ames test; TA98 and TA100; up to 10 µM, with and without S9): negative
O=[N+]([O-])c1ccc(NC2CCNCC2)c(C(F)(F)F)c1  induction factor (SOS response, SOS/umu test; TA1535/pSK1002, TGA medium; 0.25 mg/mL, 4 h, added: 10% rat liver S9; reference: untreated): 0.8
CC(=O)N1CCC(C(=O)N2CCN3C(=O)c4cc(-c5ccccc5)ccc4NC(=O)C3C2)CC1 (centres unmarked)  revertants per plate (TA1535; 5000 µg/plate): 19
O=[N+]([O-])c1ccc(N2CCC(NCCC(O)c3ccc(F)c4ccccc34)CC2)c(C(F)(F)F)c1 (centres unmarked)  survival (SOS/umu test; TA1535/pSK1002, TGA medium; 0.000122 mg/mL, 4 h, added: 10% rat liver S9): 89%
Nc1ccc2cc3ccccc3cc2c1  revertant ratio (Ames test, confirmatory; TA100; 2.0 µg/plate, added: rat liver S9; reference: solvent control): 4
CN(CC(C)(C)C)N=O  revertant colonies per plate (mutagenicity, Ames plate incorporation; TA98; 50 µg/plate, without S9, methanol): 24 ± 4
O=[N+]([O-])c1ccc2c(c1)Cc1ccccc1-2  revertant fold increase (TA98; 1 µg/plate, added: without S9; reference: vehicle control): 6.5
OC(CCN1CC=C(c2ccc(F)cc2)CC1)c1ccc(F)c2ccccc12 (centres unmarked)  induction factor (genotoxicity, SOS/umu test; TA1535/pSK1002; 0.125 mg/mL, 4 h, with S9, lower range): 0.9
COCCN(CCOC)N=O  revertant colonies per plate (mutagenicity, Ames plate incorporation; TA100; 150 µg/plate, 3 d, without S9, methanol): 136 ± 24
O=[N+]([O-])c1ccc(N2CCN(CCC(O)c3ccc(F)cc3)CC2)c(C(F)(F)F)c1 (centres unmarked)  induction factor (genotoxicity, SOS/umu test; TA1535/pSK1002; 0.016 mg/mL, 4 h, with S9, lower range): 0.8
CN(N=O)c1ccc(F)cc1  revertant colonies per plate (mutagenicity, Ames plate incorporation; TA100; 500 µg/plate, 3 d, without S9, methanol): 138 ± 4
N#C[C@@]1(n2ccc(N)nc2=O)O[C@H](CO)[C@@H](O)[C@H]1O  viability (TA1535; 100 µM, without S9): 101%
CC(C)N(N=O)C(C)C  revertant colonies per plate (mutagenicity, Ames plate incorporation; TA1537; 5000 µg/plate, without S9, methanol): 10.3 ± 4
Nc1ccc2cc3ccccc3cc2c1  revertant fold increase (TA1537; 5 µg/plate, added: rat liver S9; reference: vehicle control): 28.4
O=NN1CCN(C2CCCC2)CC1  revertant colonies per plate (mutagenicity, Ames plate incorporation; TA98; 2500 µg/plate, 3 d, without S9, methanol): 31 ± 3
O=C(O)CCCOc1ccc(F)cc1-c1cc(-c2ccccc2C(F)(F)F)n(-c2ccccc2)n1  growth-inhibiting concentration (Ames test; TA100; concentration not given, without S9 metabolic activation): ≥ 1250 µg/plate

Some of these lines once more:
Fc1ccc(C2=CCNCC2)cc1  induction factor (genotoxicity, SOS/umu test; TA1535/pSK1002; 0.063 mg/mL, 4 h, without S9, full range): 0.9
COS(C)(=O)=O  revertants per well (mini-Ames test; TA102; 1.0 µL/well, without S9): > 600
